Results from different studies.
± marks the error that the study gave.
OPRL1: Nociceptin receptor (OPRL1, Homo sapiens, UniProt P41146)
OPRD1: Delta-type opioid receptor (OPRD1, Homo sapiens, UniProt P41143)

By UniProt entry, the sequences of proteins in these tests, tags left out. Residues count along the entry.
UniProt P41146, whole entry: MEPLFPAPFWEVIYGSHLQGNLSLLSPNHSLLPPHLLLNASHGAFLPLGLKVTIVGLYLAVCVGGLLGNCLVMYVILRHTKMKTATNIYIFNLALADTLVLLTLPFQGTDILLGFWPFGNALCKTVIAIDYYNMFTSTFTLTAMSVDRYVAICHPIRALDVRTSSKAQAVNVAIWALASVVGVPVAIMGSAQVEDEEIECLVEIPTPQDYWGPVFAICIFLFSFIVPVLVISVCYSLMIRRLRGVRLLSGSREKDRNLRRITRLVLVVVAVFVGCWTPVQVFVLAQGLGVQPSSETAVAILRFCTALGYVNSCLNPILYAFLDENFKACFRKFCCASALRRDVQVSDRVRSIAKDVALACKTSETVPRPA
UniProt P41143, whole entry: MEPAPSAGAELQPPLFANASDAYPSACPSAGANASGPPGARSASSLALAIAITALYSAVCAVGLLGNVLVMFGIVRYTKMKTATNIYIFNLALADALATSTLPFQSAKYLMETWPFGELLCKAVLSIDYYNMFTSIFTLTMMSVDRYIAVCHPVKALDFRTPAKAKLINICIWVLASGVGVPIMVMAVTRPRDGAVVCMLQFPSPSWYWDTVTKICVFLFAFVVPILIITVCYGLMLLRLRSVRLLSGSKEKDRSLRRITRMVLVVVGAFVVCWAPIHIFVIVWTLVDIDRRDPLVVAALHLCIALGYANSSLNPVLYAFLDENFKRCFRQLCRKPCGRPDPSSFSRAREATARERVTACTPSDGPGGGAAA
UniProt P41145, whole entry: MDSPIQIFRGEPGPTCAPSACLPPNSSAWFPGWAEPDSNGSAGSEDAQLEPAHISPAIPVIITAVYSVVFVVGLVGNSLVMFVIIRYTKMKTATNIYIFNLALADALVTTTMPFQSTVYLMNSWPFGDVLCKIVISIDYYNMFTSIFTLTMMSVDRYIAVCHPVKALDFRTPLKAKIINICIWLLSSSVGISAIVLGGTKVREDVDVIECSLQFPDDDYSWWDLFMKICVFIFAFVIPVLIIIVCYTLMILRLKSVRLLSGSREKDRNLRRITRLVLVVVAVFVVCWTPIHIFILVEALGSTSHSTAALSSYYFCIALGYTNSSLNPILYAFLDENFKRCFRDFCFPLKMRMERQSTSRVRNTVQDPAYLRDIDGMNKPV
UniProt P21462, whole entry N192K: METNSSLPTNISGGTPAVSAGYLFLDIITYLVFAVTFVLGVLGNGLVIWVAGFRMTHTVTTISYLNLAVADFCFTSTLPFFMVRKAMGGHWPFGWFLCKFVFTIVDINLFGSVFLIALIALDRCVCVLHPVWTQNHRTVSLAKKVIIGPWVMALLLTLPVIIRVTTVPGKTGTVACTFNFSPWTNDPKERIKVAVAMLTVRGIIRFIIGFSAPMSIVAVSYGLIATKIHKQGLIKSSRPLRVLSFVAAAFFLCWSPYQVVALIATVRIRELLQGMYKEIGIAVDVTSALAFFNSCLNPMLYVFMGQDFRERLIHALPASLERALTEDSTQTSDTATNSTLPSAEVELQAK
UniProt P41144, whole entry: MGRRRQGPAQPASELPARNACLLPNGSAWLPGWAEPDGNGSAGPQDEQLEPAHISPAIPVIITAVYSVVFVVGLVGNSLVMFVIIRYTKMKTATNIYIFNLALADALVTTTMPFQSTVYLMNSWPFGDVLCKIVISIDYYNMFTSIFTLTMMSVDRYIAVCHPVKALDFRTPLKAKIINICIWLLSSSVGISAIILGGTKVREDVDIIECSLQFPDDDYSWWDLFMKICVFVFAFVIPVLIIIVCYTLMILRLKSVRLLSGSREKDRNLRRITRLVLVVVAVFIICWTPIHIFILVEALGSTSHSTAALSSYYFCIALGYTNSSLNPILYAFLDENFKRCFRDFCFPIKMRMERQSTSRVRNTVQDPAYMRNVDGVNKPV
UniProt A0A286XTF2, 1-366: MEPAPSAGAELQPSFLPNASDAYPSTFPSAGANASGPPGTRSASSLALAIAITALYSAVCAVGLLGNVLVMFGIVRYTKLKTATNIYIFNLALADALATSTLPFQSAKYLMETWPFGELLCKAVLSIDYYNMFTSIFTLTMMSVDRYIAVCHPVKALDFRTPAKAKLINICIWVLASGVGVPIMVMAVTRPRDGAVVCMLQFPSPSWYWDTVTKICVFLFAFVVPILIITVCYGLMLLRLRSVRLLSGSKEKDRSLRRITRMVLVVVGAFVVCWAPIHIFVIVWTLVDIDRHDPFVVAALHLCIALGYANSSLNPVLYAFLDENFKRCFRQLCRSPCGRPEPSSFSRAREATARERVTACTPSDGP

| SMILES | tested on | test | test system | conditions | quantity | result |
| --- | --- | --- | --- | --- | --- | --- |
| N=C(N)NCC(=O)NCC1(Nc2cccc3ccccc23)CCN(Cc2ccccc2)CC1 | Kappa-type opioid receptor (OPRK1, Homo sapiens, UniProt P41145) | binding | HEK293 membranes | with: [3H]U-69,593 | Ki | 3680 ± 530 nM |
| CC[C@H](C)[C@H](N)C(=O)N[C@@H](CC(=O)O)C(=O)N[C@@H](CCCNC(=N)N)C(=O)N[C@@H](CC(C)C)C(=O)N[C@@H](CC(N)=O)C(=O)N[C@@H](CCC(=O)O)C(=O)N[C@H](C(=O)N[C@@H](C)C(=O)N[C@@H](CCCCN)C(=O)N[C@@H](CC(N)=O)C(=O)N[C@@H](CC(C)C)C(=O)N[C@@H](CC(N)=O)C(=O)N[C@@H](CCC(=O)O)C(=O)N[C@@H](CO)C(=O)N[C@@H](CC(C)C)C(=O)N[C@H](C(=O)N[C@@H](CC(=O)O)C(=O)N[C@@H](CC(C)C)C(=O)N[C@@H](CCC(N)=O)C(=O)N[C@@H](CCC(=O)O)C(=O)N[C@@H](CC(C)C)C(=O)NCC(=O)N[C@@H](CCCCN)C(=O)N[C@@H](Cc1ccc(O)cc1)C(=O)N[C@@H](CCC(=O)O)C(=O)N[C@@H](CCC(N)=O)C(=O)N[C@@H](Cc1ccc(O)cc1)C(=O)N[C@H](C(=O)N[C@@H](CCCCN)C(=O)N[C@@H](Cc1c[nH]c2ccccc12)C(=O)N1CCC[C@H]1C(=O)N[C@@H](Cc1c[nH]c2ccccc12)C(=O)N[C@@H](Cc1ccc(O)cc1)C(=O)N[C@H](C(=O)N[C@@H](Cc1c[nH]c2ccccc12)C(=O)N[C@@H](CC(C)C)C(=O)O)C(C)C)[C@@H](C)CC)[C@@H](C)CC)C(C)C | fMet-Leu-Phe receptor (FPR1, Homo sapiens, UniProt P21462, N192K) | binding, competition binding |  | 4 °C, with: formyl-Nle-Leu-Phe-Nle-Tyr-Lys-FITC 0.3 nM | Ki | 3140 ± 150 nM |
| CCC1C(=O)N(C2CCN([C@H]3CC[C@@H]4CCCc5cccc3c54)CC2)c2ccccc21 (relative stereo) | OPRL1 | radioligand displacement |  | with: [3H]N/OFQ | Ki | 3.16 nM |
| O=CN1CC[C@]23c4c5ccc(O)c4O[C@H]2[C@@H](O)C=C[C@H]3[C@H]1C5 | Kappa-type opioid receptor (OPRK1, Cavia porcellus, UniProt P41144) |  | guinea pig brain membranes | with: tritiated U-69593 | Ki | 363 ± 32 nM |
| CO[C@]12CC[C@@]3(C[C@@H]1[C@](C)(O)c1cccs1)[C@H]1Cc4ccc(O)c5c4[C@@]3(CCN1CC1CC1)[C@H]2O5 | Kappa-type opioid receptor (OPRK1, Homo sapiens, UniProt P41145) | binding, radioligand displacement | CHO | with: [3H]diprenorphine | Ki | 2.8 ± 0.78 nM |
| CCC1C(=O)N(C2CCN(CCCCc3ccc(-c4ccccc4)cc3)CC2)c2ccccc21 (stereo not shown) | OPRL1 | radioligand displacement |  | with: [3H]N/OFQ | Ki | > 10000 nM |
| N=C(N)NCCC[C@H](N)C(=O)NCC1(Nc2ccccc2)CCN(Cc2ccccc2)CC1 | OPRD1 | binding |  | with: [3H]DPDPE | Ki | > 5000 nM |
| NC12CC3CC(CC(C3)C1)C2 | Influenza A virus | viral replication, plaque size reduction | MDCK, A/Swine/Iowa/9-0814/2009 (H1N1) |  | EC50 | 38200 ± 3200 nM |
| N=C(N)NCC(=O)NCC1(Nc2ccccc2)CCN(Cc2ccccc2)CC1 | Kappa-type opioid receptor (OPRK1, Homo sapiens, UniProt P41145) | binding | HEK293 membranes | with: [3H]U-69,593 | Ki | 705 ± 80 nM |
| CCC1C(=O)N(C2CCN(C3CCCc4ccccc43)CC2)c2ccccc21 (stereo not shown) | Kappa-type opioid receptor (OPRK1, Homo sapiens, UniProt P41145) | radioligand displacement |  | with: tritiated U-69593 | Ki | 56.3 ± 10.2 nM |
| N=C(N)NCCNC(=O)C1(Nc2ccccc2)CCN(Cc2ccccc2)CC1 | OPRD1 | binding |  | with: [3H]DPDPE | Ki | 2610 ± 650 nM |
| CCC1C(=O)N(C2CCN(C3CCc4ccccc4C3)CC2)c2ccccc21 (stereo not shown) | OPRL1 | radioligand displacement |  | with: [3H]N/OFQ | Ki | 12 ± 2.58 nM |
| CO[C@]12C=C[C@@]3(C[C@@H]1[C@@H](O)c1ccccc1)[C@H]1Cc4ccc(O)c5c4[C@@]3(CCN1CC1CC1)[C@H]2O5 | G_PROTEIN_RECEP_F1_2 domain-containing protein (Cavia porcellus, UniProt A0A286XTF2) | binding, radioligand displacement | guinea pig brain membranes | with: [3H]DPDPE | Ki | 0.4 nM |
